# Results from different studies.
# PIP4K2C: Phosphatidylinositol 5-phosphate 4-kinase type-2 gamma (PIP4K2C, Homo sapiens, UniProt Q8TBX8)
# UniProt Q8TBX8, sequence (whole entry, looked up): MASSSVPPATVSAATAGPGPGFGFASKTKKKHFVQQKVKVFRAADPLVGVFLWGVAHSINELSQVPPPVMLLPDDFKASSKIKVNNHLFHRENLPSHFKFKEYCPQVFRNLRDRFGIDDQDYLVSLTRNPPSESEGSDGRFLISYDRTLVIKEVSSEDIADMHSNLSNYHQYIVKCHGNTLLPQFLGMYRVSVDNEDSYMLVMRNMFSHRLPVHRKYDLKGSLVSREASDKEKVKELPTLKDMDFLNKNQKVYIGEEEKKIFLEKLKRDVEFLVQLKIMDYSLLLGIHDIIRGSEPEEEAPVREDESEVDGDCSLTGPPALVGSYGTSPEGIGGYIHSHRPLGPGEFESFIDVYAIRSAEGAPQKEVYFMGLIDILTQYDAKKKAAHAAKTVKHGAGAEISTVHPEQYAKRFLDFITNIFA
# BAZ2A bromodomain: Bromodomain adjacent to zinc finger domain protein 2A, bromodomain (BAZ2A, Homo sapiens, UniProt Q9UIF9)
# UniProt Q9UIF9, sequence (whole entry, looked up): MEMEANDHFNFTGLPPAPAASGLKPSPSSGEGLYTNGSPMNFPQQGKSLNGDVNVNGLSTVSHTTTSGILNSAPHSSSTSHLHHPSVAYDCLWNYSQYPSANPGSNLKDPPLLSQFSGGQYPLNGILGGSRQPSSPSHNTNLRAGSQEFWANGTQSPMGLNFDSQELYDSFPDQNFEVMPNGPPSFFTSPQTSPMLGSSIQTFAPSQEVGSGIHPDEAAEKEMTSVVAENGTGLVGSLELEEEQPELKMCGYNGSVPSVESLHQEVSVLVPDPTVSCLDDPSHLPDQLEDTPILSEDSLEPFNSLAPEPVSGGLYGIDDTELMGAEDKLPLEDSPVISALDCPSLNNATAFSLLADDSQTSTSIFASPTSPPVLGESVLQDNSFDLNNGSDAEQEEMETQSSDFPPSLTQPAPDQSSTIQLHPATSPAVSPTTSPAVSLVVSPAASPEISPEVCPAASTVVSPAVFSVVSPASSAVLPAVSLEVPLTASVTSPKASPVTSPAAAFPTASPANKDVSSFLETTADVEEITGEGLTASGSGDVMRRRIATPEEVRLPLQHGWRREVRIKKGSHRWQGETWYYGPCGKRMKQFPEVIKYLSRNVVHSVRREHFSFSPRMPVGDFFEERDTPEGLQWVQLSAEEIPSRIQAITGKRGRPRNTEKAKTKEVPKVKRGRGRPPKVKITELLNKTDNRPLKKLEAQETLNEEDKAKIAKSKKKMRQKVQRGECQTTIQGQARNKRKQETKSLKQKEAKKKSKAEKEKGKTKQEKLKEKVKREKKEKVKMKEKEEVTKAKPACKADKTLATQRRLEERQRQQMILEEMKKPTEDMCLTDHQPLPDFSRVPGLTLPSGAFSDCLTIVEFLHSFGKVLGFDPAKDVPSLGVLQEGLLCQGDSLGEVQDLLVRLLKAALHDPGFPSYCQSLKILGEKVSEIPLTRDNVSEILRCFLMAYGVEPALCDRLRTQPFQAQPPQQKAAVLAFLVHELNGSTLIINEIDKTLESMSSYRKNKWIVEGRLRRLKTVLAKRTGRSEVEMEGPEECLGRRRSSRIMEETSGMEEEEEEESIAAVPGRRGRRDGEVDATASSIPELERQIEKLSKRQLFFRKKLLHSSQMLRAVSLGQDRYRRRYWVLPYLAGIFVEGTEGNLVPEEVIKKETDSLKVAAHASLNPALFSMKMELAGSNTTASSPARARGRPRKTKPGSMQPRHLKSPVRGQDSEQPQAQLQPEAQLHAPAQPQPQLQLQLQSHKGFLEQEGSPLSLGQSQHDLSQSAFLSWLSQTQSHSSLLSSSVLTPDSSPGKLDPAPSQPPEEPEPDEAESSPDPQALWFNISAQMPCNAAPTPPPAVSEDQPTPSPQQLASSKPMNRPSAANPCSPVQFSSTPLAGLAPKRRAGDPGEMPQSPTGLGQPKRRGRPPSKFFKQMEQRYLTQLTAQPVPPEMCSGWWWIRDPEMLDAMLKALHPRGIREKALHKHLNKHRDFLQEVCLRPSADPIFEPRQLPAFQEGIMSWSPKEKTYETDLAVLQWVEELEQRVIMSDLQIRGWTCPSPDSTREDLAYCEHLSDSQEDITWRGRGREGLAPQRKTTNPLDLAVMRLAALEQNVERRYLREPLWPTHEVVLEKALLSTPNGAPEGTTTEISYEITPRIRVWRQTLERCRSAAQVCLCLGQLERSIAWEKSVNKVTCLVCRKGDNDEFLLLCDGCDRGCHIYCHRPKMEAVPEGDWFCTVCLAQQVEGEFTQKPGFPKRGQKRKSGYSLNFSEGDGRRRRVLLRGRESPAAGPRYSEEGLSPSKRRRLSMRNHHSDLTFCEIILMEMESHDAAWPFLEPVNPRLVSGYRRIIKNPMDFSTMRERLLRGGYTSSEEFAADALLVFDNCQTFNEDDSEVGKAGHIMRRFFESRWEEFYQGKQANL
# UniProt P19525, sequence (whole entry, looked up): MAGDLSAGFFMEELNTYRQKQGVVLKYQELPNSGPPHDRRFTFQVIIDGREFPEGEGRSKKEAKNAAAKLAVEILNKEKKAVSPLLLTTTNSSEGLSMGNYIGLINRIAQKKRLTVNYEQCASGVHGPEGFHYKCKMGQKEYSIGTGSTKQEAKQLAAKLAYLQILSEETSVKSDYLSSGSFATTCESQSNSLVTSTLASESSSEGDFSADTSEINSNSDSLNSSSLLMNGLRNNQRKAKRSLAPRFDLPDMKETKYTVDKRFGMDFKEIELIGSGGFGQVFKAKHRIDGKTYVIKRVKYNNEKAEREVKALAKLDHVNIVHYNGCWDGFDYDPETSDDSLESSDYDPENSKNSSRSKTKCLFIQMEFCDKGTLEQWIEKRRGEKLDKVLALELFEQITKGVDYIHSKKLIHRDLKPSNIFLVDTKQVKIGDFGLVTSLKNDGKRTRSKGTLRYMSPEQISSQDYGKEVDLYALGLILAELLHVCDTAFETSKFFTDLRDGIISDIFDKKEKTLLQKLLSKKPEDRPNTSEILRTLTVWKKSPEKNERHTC
Compound,tested on,assay,system,setting,how to read,measurement,value
C=CC(=O)N1CCCC(n2c(=O)c3ncccc3n(Cc3ccc(Oc4ccccc4)cc3)c2=O)C1 (stereo not drawn),"Tyrosine-protein kinase ABL1, phosphorylated (ABL1, Homo sapiens, UniProt P00519, Y253F)","binding, competition with immobilised ligand",,1 µM,,remaining binding,95%
CC(C)(C#Cc1ccc2[nH]c3c(c2c1)-c1nc(N)ncc1CCC3)CO,PIP4K2C,"binding, competition with immobilised ligand",,1 µM,,remaining binding,2.2%
Cc1cnc2nc1Nc1cccc(c1)COC/C=C/COCc1cc(ccc1OCCN1CCOCC1)N2,"EGFR (Homo sapiens, UniProt P00533, G719C)",binding,,0.1 µM,,remaining binding,91%
Cn1cc(-c2cc(N3CCCCS3(=O)=O)ccc2N[C@H]2CC[C@H](C)CC2)c2cc[nH]c2c1=O (stereo in doubt),BAZ2A bromodomain,"binding, competition with immobilised ligand",,1 µM,,remaining binding,100%
Nc1ncc2c(n1)-c1c([nH]c3ccc(C4=CCOCC4)cc13)CCC2,PIP4K2C,"binding, competition with immobilised ligand",,1 µM,,remaining binding,1.7%
Cc1cc(NC(=O)[C@H](O)c2cc(F)cc(F)c2)ccc1-c1cnc(N)c(C(=O)NC(C)C)c1,"EIF2AK2 (Homo sapiens, UniProt P19525)","binding, competition with immobilised ligand",,10 µM,,remaining binding,100%
Cc1ncsc1-c1ccc(C(C)NC(=O)C2CC(O)CN2C(=O)C(NC(=O)CCCCCCCCCCN2CCCC(Nc3ncc(Cl)c(Nc4ccccc4S(=O)(=O)C(C)C)n3)C2)C(C)(C)C)cc1 (stereo not drawn),22Rv1,"RNA-seq, measured: ZNF778 mRNA",,concentration not given,reference: DMSO,log2 fold change,-1.19
C=CC(=O)N1CCc2ccc(-n3c(=O)ccc4cnc5ccc(-c6cnn(C)c6)cc5c43)cc21,"Tyrosine-protein kinase ABL1, phosphorylated (ABL1, Homo sapiens, UniProt P00519, H396P)","KINOMEscan, measured: (H396P)-phosphorylated",,1 µM,reference: control,remaining binding,100%
CC(C)C(O)C#Cc1ccc2[nH]c3c(c2c1)-c1nc(N)ncc1CC3 (stereo not drawn),PIP4K2C,"binding, competition with immobilised ligand",,1 µM,,remaining binding,1.9%
CC(=O)N1c2ccc(-c3ccc(CNC(=O)c4cn5cc(-c6cnc(N)nc6)nc(N6CCOCC6)c5n4)cc3)cc2CC[C@@H]1C,BAZ2A bromodomain,"binding, competition with immobilised ligand",,10 µM,,remaining binding,27%
C=CC(=O)Nc1cccc(Cn2ncc3cnc(Nc4cnn(CCOC)c4)nc32)c1,BMPR2 human,"binding, KINOMEscan",,100 nM,lower = stronger binding,percent of control,90%
Nc1ncc2c(n1)-c1c([nH]c3ccc(C#Cc4ccncc4)cc13)CCC2,PIP4K2C,"binding, competition with immobilised ligand",,1 µM,,remaining binding,47%
CNC(=O)C1CCN(c2cc(C)c(F)cc2NC(=O)c2ccc(-c3cc(O)ccc3C)c(C)c2)CC1,"Tyrosine-protein kinase ABL1, phosphorylated (ABL1, Homo sapiens, UniProt P00519, E255K)","binding, competition with immobilised ligand",,1 µM,,remaining binding,29%
COC1CN([C@H]2CC[C@H]([C@@]3(C)Oc4c(Cl)cc(C(=O)NCc5c(SC)cc(C)[nH]c5=O)c(C)c4O3)CC2)C1,,"RNA-seq, measured: PLS1","human, whole blood","dose not given, 24 h",reference: pretreatment baseline,log2 fold change,1.57
CNC1C[S+]2CC[S+]3CC[S+](C1)[Ru-4]321([N]=C=S)[n]2c3ccc(OC)cc3c3c4c(c5cc(F)c[n+]1c5c32)C(=O)NC4=O (stereo not drawn),"Tyrosine-protein kinase ABL1, non-phosphorylated (ABL1, Homo sapiens, UniProt P00519, H396P)",KinomeScan,,0.1 µM,reference: untreated,remaining binding,88%

# Excerpt of the above:
Compound,tested on,assay,system,setting,how to read,measurement,value
CC(C)(C#Cc1ccc2[nH]c3c(c2c1)-c1nc(N)ncc1CCC3)CO,PIP4K2C,"binding, competition with immobilised ligand",,1 µM,,remaining binding,2.2%
